Measured values pooled from the literature.
± marks the error that the study gave.
CSNK1D: Casein kinase I isoform delta (CSNK1D, Homo sapiens, UniProt P48730)
UniProt P48730, sequence (whole entry, looked up): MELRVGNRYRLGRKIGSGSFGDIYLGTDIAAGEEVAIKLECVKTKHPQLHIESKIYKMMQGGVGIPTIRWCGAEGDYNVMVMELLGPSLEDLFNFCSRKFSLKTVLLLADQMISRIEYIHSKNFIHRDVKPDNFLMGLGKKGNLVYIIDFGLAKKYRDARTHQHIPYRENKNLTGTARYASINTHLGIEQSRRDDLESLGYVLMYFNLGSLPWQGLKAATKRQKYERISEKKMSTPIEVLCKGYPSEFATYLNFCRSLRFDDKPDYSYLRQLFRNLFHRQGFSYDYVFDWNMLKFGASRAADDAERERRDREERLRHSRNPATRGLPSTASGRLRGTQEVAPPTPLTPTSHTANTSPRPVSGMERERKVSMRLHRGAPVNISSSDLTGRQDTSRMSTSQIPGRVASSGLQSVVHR
PSMB5: Proteasome Macropain subunit MB1 (PSMB5, Homo sapiens, UniProt P28074)
UniProt P28074, sequence (whole entry, looked up): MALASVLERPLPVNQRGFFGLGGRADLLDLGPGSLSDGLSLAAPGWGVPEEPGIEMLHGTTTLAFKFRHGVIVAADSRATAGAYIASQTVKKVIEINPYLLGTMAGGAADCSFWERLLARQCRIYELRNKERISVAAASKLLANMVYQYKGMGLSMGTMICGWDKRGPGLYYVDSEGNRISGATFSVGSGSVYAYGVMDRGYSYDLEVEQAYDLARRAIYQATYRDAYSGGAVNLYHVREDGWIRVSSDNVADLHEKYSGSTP
PLG: Plasminogen (PLG, Homo sapiens, UniProt P00747)
UniProt P00747, sequence (whole entry, looked up): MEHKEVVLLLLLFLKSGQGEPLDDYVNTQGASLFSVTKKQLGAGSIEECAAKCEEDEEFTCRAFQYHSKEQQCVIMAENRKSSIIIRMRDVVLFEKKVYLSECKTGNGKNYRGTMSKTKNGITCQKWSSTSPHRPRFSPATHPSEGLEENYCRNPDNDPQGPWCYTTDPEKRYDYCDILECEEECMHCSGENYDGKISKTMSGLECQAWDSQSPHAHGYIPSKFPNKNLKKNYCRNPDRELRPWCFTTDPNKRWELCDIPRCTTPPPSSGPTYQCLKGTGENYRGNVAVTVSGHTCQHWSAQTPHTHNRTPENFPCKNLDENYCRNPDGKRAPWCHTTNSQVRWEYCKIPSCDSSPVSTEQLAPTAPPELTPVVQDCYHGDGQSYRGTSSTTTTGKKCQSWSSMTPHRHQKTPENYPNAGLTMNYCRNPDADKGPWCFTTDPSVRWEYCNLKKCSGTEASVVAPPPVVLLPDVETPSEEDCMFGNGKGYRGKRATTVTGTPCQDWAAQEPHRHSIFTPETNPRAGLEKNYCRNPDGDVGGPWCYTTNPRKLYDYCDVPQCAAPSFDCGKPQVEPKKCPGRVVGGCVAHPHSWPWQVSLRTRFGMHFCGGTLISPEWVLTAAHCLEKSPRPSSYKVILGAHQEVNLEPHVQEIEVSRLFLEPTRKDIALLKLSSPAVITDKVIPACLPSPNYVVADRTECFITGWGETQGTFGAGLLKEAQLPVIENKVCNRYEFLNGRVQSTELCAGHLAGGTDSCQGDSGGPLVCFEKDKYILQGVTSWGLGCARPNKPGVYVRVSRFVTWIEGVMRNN
PPARG ligand-binding domain: Peroxisome proliferator-activated receptor gamma, ligand-binding domain (PPARG, Homo sapiens, UniProt P37231)
UniProt P37231, sequence (whole entry, looked up): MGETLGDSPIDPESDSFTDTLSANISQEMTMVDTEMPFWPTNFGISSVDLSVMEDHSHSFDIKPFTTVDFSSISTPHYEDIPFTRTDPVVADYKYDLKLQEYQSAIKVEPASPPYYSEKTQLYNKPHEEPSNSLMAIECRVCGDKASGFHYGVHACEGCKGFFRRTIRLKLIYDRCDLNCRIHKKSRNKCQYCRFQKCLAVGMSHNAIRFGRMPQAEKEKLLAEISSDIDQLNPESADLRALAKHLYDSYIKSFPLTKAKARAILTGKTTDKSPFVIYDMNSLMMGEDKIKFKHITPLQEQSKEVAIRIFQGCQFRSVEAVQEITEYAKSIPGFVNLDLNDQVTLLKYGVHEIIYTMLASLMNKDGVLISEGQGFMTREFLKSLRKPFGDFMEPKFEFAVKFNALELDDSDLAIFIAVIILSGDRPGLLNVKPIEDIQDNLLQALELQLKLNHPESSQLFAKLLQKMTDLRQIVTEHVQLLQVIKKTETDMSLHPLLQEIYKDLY
Phospholipase A2, membrane associated: Phospholipase A2, membrane associated (Homo sapiens, UniProt P14555)
UniProt P14555, sequence (whole entry, looked up): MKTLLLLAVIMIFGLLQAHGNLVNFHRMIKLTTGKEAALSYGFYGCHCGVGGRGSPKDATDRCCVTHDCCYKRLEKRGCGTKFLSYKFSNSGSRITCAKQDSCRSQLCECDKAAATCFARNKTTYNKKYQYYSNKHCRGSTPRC
CYP2E1: Cytochrome P450 2E1 (CYP2E1, Homo sapiens, UniProt P05181)
UniProt P05181, sequence (whole entry, looked up): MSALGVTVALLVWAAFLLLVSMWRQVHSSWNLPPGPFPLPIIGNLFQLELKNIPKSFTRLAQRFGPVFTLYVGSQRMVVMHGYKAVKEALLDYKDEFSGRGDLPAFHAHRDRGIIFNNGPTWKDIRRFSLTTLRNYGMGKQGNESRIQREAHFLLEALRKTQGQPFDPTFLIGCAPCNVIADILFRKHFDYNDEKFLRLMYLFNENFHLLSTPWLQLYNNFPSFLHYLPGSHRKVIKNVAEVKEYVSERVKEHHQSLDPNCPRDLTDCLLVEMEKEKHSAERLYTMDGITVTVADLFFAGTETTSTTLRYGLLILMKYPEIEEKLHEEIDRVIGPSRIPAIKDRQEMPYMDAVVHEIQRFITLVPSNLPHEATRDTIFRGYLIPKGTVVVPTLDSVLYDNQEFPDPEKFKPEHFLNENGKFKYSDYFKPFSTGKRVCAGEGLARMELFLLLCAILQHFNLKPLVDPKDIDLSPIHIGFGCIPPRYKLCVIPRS
AR: Androgen receptor (AR, Homo sapiens, UniProt P10275)
Dihydrofolate reductase type 2: Dihydrofolate reductase type 2 (Escherichia coli, UniProt P00383)
UniProt P00383, sequence (whole entry, looked up): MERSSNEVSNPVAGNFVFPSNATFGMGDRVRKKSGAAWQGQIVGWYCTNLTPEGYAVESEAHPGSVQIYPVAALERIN
Proteasome component C5/PSMB5: Proteasome component C5/PSMB5 (Homo sapiens, UniProt P20618+P28074)
UniProt P20618, sequence (whole entry, looked up): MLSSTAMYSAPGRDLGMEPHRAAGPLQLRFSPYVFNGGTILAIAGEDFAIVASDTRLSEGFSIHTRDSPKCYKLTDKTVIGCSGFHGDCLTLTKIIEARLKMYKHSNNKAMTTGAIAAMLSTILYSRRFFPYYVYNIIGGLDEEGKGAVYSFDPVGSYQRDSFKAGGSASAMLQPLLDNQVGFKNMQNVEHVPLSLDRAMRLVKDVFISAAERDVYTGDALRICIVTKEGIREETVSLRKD
F2: Prothrombin (F2, Homo sapiens, UniProt P00734)
Protein AF-9 with DOT1L: Protein AF-9, with DOT1L (Homo sapiens, UniProt P42568)
UniProt P42568, sequence (whole entry, looked up): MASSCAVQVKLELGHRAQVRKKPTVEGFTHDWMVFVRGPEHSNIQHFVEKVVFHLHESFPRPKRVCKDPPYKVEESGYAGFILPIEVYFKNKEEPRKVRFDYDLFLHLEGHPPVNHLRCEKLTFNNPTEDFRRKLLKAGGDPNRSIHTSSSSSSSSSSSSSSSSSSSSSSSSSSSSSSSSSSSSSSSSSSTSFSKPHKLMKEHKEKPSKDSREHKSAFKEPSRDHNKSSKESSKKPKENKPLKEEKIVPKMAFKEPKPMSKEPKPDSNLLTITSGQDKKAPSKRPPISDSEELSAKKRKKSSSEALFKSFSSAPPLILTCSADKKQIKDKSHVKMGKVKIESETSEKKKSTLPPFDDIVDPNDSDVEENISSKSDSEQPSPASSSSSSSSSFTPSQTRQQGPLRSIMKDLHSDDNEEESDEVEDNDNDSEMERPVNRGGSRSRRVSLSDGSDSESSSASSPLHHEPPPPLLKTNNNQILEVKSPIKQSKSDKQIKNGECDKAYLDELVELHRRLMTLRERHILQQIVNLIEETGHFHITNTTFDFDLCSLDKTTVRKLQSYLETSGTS
RET: Proto-oncogene tyrosine-protein kinase receptor Ret (RET, Homo sapiens, UniProt P07949)
UniProt P07949, sequence (whole entry, looked up): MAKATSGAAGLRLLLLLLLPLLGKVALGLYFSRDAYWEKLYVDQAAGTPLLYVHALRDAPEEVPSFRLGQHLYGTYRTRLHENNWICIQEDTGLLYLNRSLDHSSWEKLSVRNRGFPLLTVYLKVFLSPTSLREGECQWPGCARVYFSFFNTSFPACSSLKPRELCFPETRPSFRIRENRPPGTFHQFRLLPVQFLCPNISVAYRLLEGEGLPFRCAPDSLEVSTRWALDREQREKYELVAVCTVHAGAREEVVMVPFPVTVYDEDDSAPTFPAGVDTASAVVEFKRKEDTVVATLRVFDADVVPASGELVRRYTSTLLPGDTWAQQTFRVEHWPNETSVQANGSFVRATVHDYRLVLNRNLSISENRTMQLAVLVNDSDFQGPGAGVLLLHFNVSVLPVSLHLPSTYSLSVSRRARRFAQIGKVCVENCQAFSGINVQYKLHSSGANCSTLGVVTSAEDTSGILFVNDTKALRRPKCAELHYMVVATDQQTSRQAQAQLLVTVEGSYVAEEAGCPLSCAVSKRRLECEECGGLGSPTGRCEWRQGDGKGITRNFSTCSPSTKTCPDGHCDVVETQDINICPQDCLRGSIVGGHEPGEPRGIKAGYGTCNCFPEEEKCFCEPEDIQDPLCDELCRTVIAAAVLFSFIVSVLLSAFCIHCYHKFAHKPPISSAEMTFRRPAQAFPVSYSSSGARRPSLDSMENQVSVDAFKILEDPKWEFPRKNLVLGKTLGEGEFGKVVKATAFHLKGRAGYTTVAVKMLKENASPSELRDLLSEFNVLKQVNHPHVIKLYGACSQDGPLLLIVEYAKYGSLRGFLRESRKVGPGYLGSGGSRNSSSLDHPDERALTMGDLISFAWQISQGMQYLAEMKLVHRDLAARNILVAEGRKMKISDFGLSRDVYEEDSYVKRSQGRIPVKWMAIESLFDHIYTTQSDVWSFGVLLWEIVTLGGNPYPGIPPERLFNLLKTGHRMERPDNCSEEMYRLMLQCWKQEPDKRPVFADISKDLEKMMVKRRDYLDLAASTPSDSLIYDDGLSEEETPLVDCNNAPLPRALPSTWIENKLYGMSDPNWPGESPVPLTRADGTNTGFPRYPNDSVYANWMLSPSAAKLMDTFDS
UniProt P28076, sequence (whole entry, looked up): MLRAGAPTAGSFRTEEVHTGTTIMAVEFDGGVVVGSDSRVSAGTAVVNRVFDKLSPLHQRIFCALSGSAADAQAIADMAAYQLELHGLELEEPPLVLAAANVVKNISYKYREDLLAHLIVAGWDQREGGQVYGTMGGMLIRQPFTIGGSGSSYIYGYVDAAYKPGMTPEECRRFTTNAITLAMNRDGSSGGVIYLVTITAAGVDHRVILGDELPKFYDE

| Compound | target | assay | test system | setting | IC50 [µM] |
| --- | --- | --- | --- | --- | --- |
| Fc1ccc(-c2c(-c3ccncc3)ncn2-c2ccc(-c3ccccc3)cc2)cc1 | CSNK1D | inhibitor |  |  | 0.655 ± 0.0709 |
| CC(C)C[C@H](NC(=O)c1ccc(-c2ccccc2)nc1)C(=O)N[C@@H](CC(C)C)C(=O)N[C@H](/C=C/S(C)(=O)=O)Cc1ccc(CN)cc1 | PSMB5 | competitive ABPP | Raji cell lysate |  | 4.47 |
| COCc1nn(Cc2ccc(Cn3ccccc3=O)cc2)cc1C(=O)NCc1cccc(OC)c1F | PLG |  |  |  | > 40 |
| O=C(Nc1ccc(CCF)cc1)c1cc([N+](=O)[O-])ccc1Cl | PPARG ligand-binding domain | binding, scintillation proximity | His-tagged ligand-binding domain | added: [3H]rosiglitazone | 0.0301 ± 0.0058 |
| Cc1ncc(C(=O)N[C@@H](CC(C)C)C(=O)N[C@@H](CC2CCC(C)CC2)C(=O)N[C@H](/C=C/S(C)(=O)=O)Cc2ccc(CN)cc2)s1 (stereo partly shown) | PSMB5 | competitive ABPP | Raji cell lysate |  | > 10 |
| COc1ccc2cc(/C=N/n3c(C)nc4ccc(Br)cc4c3=O)ccc2c1 | Phospholipase A2, membrane associated | enzyme activity, inhibitor, colorimetric |  |  | 16.8 ± 1 |
| C=CC(=O)N1CCC[C@@H](n2nc(-c3ccc(Oc4ccccc4)cc3)c3c(N)ncnc32)C1 | Serine/threonine-protein kinase mTOR (MTOR, Homo sapiens, UniProt P42345) |  |  |  | 1.86 |
| CC[C@@H]1[C@H](F)C(=O)N[C@@H]1COc1nccc2cc(C(N)=O)c(OC)cc12 | Phosphatidylinositol 4-kinase beta (PI4KB, Homo sapiens, UniProt Q9UBF8) | ATP probe binding, KiNativ profiling, refers to: ATP probe site | THP-1 cell lysate |  | > 5 |
| CCc1oc2ccccc2c1C(=O)c1cc(I)c(O)c(I)c1 | CYP2E1 | p-nitrophenol hydroxylation, inhibitor | baculosomes | 10 min, with additive 100 µM | 49 |
| CN1CCN(c2ccc(Nc3ncc4cc(C#N)c(=O)n(C5CCCC5)c4n3)cc2)CC1 | Serine/threonine-protein kinase pim-1 (PIM1, Homo sapiens, UniProt P11309) |  |  |  | 0.875 |
| CC1(C)NC(=O)N(c2ccc3c(c2)OC(F)(F)O3)C1=O | AR | reporter gene, antagonist | LAPC4 | 24 h, added: DHT 10 nM | 4.9 |
| Cc1ccccc1-c1nc(-c2ccc(F)cc2)c(-c2ccncc2)[nH]1 | CSNK1D | inhibitor |  |  | 0.0381 ± 0.0062 |
| CN(C)C(=O)c1ccc2nc(-c3ccc(OCCCOc4ccc(-c5nc6ccc(C(=O)N(C)C)cc6[nH]5)cc4Br)c(Br)c3)[nH]c2c1 | Dihydrofolate reductase type 2 | enzyme activity |  | pH 7 | > 100 |
| CC1CC(C)CN(c2ccc(C=NNc3nc(-c4ccc(C#N)cc4)cs3)cc2)C1 (stereo not shown) | alpha-glucosidase | enzyme activity, inhibitor |  | added: p-nitrophenyl-alpha-D-glucopyranoside | > 100 |
| Cc1ncc(C(=O)N[C@@H](CC2CCCCC2)C(=O)N[C@@H](CC2CCCCC2)C(=O)N[C@H](/C=C/S(C)(=O)=O)Cc2ccc(CN)cc2)s1 | PSMB5 | competitive ABPP | Raji cell lysate |  | > 10 |
| CC(C)C[C@H](NC(=O)OCc1ccccc1)C(=O)N[C@@H](CC(C)C)C(=O)NN(CC(C)C)C(=O)/C=C/C(=O)N(Cc1ccccc1)Cc1ccccc1 | Proteasome component C5/PSMB5 | chymotrypsin-like activity, inhibitor | human 20S proteasome | added: Suc-LLVY-AMC 100 µM | 1.2 ± 1.1 |
| CCCCCCOC(=O)c1ccccc1C(=O)c1ccc(N(CC)CC)cc1O | AR | reporter gene, antagonist |  |  | 2.36 |
| Cc1cc(OC(C)C)ccc1C(=O)C(C)(C)NC(=O)c1sccc1C | cytochrome bc1 complex (Corynespora cassiicola, UniProt A0A2T2NJU0+A0A2T2P1V1+A0A2T2PCF5) | succinate-cytochrome c reductase activity | Corynespora cassiicola, mitochondrial fraction | 25 °C | 0.00195 |
| O=C1C=Cc2c(c(-c3ccsc3)cn2S(=O)(=O)c2ccccc2)C1=O | ELAV-like protein 1, RRM1-RRM2 domains (ELAVL1, Homo sapiens, UniProt Q15717) | HuR-RNA complex formation, REMSA |  | added: 1 nM labelled RNA probe | 6.62 |
| COc1ccnc(CNC(=O)c2cnn(Cc3ccc(Cn4ccccc4=O)cc3)c2)c1F | F2 |  |  |  | > 40 |
| c1cc(N2CCCC2)ccc1-c1ccc2ncc(OCC3CCNCC3)nc2c1 | Protein AF-9 with DOT1L | DOT1L binding, AlphaLISA |  |  | 3.7 |
| COc1ccc(C[C@H](NC(=O)[C@H](C)NC(=O)CN2CCOCC2)C(=O)N[C@@H](CC2CCC(OC)CC2)C(=O)[C@@]2(C)CO2)cc1 (stereo partly shown) | PSMB5 | competitive ABPP | Raji cell lysate |  | > 10 |
| C=Cc1ccccc1 | CYP2E1 | enzyme activity, inhibitor |  | 30 (unit not given), pH 7.4 | 74 |
| COCC(=O)N1CCC[C@H](C(=O)NCc2nc(-c3ccc(OC)cc3)cs2)C1 | uncharacterized protein (Plasmodium falciparum, UniProt A0A5K1K7U1+Q8I261+Q8IJT1) | Suc-LLVY-AMC |  | added: WLW-vs 0.5 µM | 0.12 ± 0.0058 |
| Cc1nc2ccc(Cl)cc2c(=O)n1NC1=NC(=O)CS1 | Phospholipase A2, membrane associated | enzyme activity, inhibitor, colorimetric |  |  | 57.01 ± 0.57 |
| COCc1nn(Cc2ccc(Cn3ccccc3=O)cc2)cc1C(=O)NCc1c(Cl)ccc(OC)c1F | PLG |  |  |  | > 40 |

| Compound | target | assay | test system | setting | IC50 [µM] |
| --- | --- | --- | --- | --- | --- |
| Fc1ccc(-c2nc(-c3cccnc3)[nH]c2-c2ccncc2)cc1 | CSNK1D | inhibitor |  |  | 0.0751 ± 0.0081 |
| COc1ccc(-c2ccc3ncc4c(c3c2)n([C@@H]2CCN(C)CC2(F)F)c(=O)n4C)cn1 | DNA-dependent protein kinase catalytic subunit (PRKDC, Homo sapiens, UniProt P78527) | DNA-PKcs S2056 autophosphorylation, inhibitor, in-cell western | HT-29 | added: 10 Gy radiation | 0.169 ± 0.0134 |
| Cc1cccc(-c2nc(C#CCCO)[nH]c2-c2ccncc2)c1 | CSNK1D | inhibitor |  |  | 0.303 ± 0.0197 |
| c1cc(N2CCCCC2)ccc1Nc1cc2ncc(OCC3CCNCC3)nc2cc1-c1ccc(N2CCCCC2)cc1 | Protein AF-9, with AF4 (Homo sapiens, UniProt P42568) | AlphaScreen |  |  | 0.95 ± 0.1 |
| CN1CCN(CCCOc2ccc(-c3nc4ccc(C(=O)NCc5ccccc5)cc4[nH]3)cc2)CC1 | Dihydrofolate reductase type 2 | enzyme activity |  | pH 7 | > 500 |
| CC(C)C[C@H](NC(=O)[C@H](CCc1ccccc1)NC(=O)CN1CCOCC1)C(=O)N[C@@H](Cc1ccccc1)C(=O)N[C@@H](CC(C)C)C(=O)[C@@]1(C)CO1 | Proteasome subunit beta type-9 (Mus musculus, UniProt P28076) | proteasome subunit activity | Ba/F3 BCR-ABL1 M351T | 1 h pulse | 0.147 ± 0.0266 |
| COc1cccc2c(N3CCC(CCP(=O)(O)O)CC3)ncnc12 | Ectonucleotide pyrophosphatase/phosphodiesterase family member 3 (Homo sapiens, UniProt O14638) | cGAMP hydrolysis, inhibitor |  | overnight, added: cGAMP 2 µM | 0.8 |
| c1cc(-c2ccc3ncc(OCC4CCNCC4)nc3c2)cc(N2CCCC2)c1 | Protein AF-9 with DOT1L | DOT1L binding, AlphaLISA |  |  | 5.7 |
| CC(C)C[C@H](NC(=O)[C@H](CCc1ccccc1)NC(=O)CN1CCOCC1)C(=O)N[C@@H](Cc1ccccc1)C(=O)NN(CC(C)C)C(=O)C=O | Proteasome component C5/PSMB5 | β5 chymotrypsin-like activity, inhibitor |  | added: Suc-LLVY-AMC 100 µM | 2.6 ± 0.8 |
| Cc1nc(CSc2nc(SCc3ccc(C(C)C)cc3)nc(=O)[nH]2)cs1 | DNA topoisomerase 2-alpha (TOP2A, Homo sapiens, UniProt P11388) | decatenation, inhibitor |  |  | 34.4 |
| CC1=C[C@@]2(C[C@H](C)[C@H]3CC=C(CO)C(=O)[C@@H]3O2)OC1=O | DNA polymerase epsilon subunit 3 (Homo sapiens, UniProt Q9NRF9) | competitive probe labelling, in-gel fluorescence | 293T overexpressing POLE3-GFP |  | 91 |
| Cc1cnn(Cc2ccc(Cn3cc(C(=O)NCc4ccc(CN)cc4)cn3)cc2)c1 | F2 |  |  |  | > 40 |
| O=C(Nc1ccc(OCCF)cc1)c1cc([N+](=O)[O-])ccc1Cl | PPARG ligand-binding domain | binding, scintillation proximity | His-tagged ligand-binding domain | added: [3H]rosiglitazone | 0.0475 ± 0.0076 |
| COC1CCC(C[C@H](NC(=O)[C@H](CC(C)C)NC(=O)c2cnc(C)s2)C(=O)N[C@H](/C=C/S(C)(=O)=O)Cc2ccc(CN)cc2)CC1 (stereo partly shown) | PSMB5 | competitive ABPP | Raji cell lysate |  | > 10 |
| CC1CC(C)CN(c2ccc(C=NNc3nc(-c4ccc(-c5ccccc5)cc4)cs3)cc2)C1 (stereo not shown) | alpha-glucosidase | enzyme activity, inhibitor |  | added: p-nitrophenyl-alpha-D-glucopyranoside | 30.1 |
| c1ccc(-c2ccc(Oc3ccc4ncc(OCC5CCNCC5)nc4c3)cc2)cc1 | Protein AF-9 with DOT1L | DOT1L binding, AlphaLISA |  |  | ~10 |
| O=C(NCCO)c1ccc2nc(-c3ccc(OCCC(O)COc4ccc(-c5nc6ccc(C(=O)NCCO)cc6[nH]5)cc4Br)c(Br)c3)[nH]c2c1 (stereo not shown) | Dihydrofolate reductase type 2 | enzyme activity |  | pH 7 | > 50 |
| Cc1cccc(-c2nc(-c3ccc(C(=O)O)cc3)[nH]c2-c2ccncc2)c1 | CSNK1D | inhibitor |  |  | 4.71 ± 1.62 |
| CCn1c(-c2nc3ccc(C(=O)N4CCCC(N)C4)cc3n2C)cc2ccccc21 (stereo not shown) | Alpha-1B adrenergic receptor (ADRA1B, Homo sapiens, UniProt P35368) | intracellular calcium, antagonist, luminescence |  |  | 3.98 |
| Cc1ncc(C(=O)N[C@@H](CCC2CCCCC2)C(=O)N[C@@H](CC(C)C)C(=O)N[C@H](/C=C/S(C)(=O)=O)Cc2ccc(CN)cc2)s1 | PSMB5 | competitive ABPP | Raji cell lysate |  | 0.46 |
| CCn1cc(C(=O)Nc2cccc(O)c2)c(=O)c2cc(F)c(N3CCN(C(C)=O)CC3)cc21 | RET | kinase activity, inhibitor |  | replicate one, added: 1 µM ATP, poly(Glu,Tyr) | 16.4 |
| COC(=O)c1ccc2nc(-c3ccc(O)cc3)[nH]c2c1 | Dihydrofolate reductase type 2 | enzyme activity |  | pH 7 | > 30 |
| Cc1cccc(-c2nc(-c3ccc(N)cc3)[nH]c2-c2ccncc2)c1 | CSNK1D | inhibitor |  |  | 3.35 ± 0.349 |
| CC(C)N(CCC(=O)c1ccc2ccccc2c1)Cc1ccccc1 | Protein-glutamine gamma-glutamyltransferase (TGM2, Homo sapiens, UniProt P21980) | enzyme activity, inhibitor |  | added: DTT 10 mM | 3 ± 0.5 |
| COc1cc(NC(=O)Nc2ccc(C)c(F)c2)cc2sc(NC(=O)c3ccccc3)nc12 | RET | kinase activity, inhibitor |  | replicate two, added: 1 µM ATP, poly(Glu,Tyr) | 9.12 |
| [Fe+2].c1ccc(CN(Cc2ccccn2)C(c2ccccn2)c2ccccn2)nc1 | PSMB5 | chymotrypsin-like activity, inhibitor, purified 20S proteasome |  | 30 min, pH 7.4, 37 °C, added: 20 µM Suc-LLVY-AMC | 9.2 |

Some of these lines once more:
| Compound | target | assay | test system | setting | IC50 [µM] |
| --- | --- | --- | --- | --- | --- |
| COc1ccc(-c2ccc3ncc4c(c3c2)n([C@@H]2CCN(C)CC2(F)F)c(=O)n4C)cn1 | DNA-dependent protein kinase catalytic subunit (PRKDC, Homo sapiens, UniProt P78527) | DNA-PKcs S2056 autophosphorylation, inhibitor, in-cell western | HT-29 | added: 10 Gy radiation | 0.169 ± 0.0134 |
| Cc1cccc(-c2nc(C#CCCO)[nH]c2-c2ccncc2)c1 | CSNK1D | inhibitor |  |  | 0.303 ± 0.0197 |
| c1cc(N2CCCCC2)ccc1Nc1cc2ncc(OCC3CCNCC3)nc2cc1-c1ccc(N2CCCCC2)cc1 | Protein AF-9, with AF4 (Homo sapiens, UniProt P42568) | AlphaScreen |  |  | 0.95 ± 0.1 |
| CN1CCN(CCCOc2ccc(-c3nc4ccc(C(=O)NCc5ccccc5)cc4[nH]3)cc2)CC1 | Dihydrofolate reductase type 2 | enzyme activity |  | pH 7 | > 500 |
| CC(C)C[C@H](NC(=O)[C@H](CCc1ccccc1)NC(=O)CN1CCOCC1)C(=O)N[C@@H](Cc1ccccc1)C(=O)N[C@@H](CC(C)C)C(=O)[C@@]1(C)CO1 | Proteasome subunit beta type-9 (Mus musculus, UniProt P28076) | proteasome subunit activity | Ba/F3 BCR-ABL1 M351T | 1 h pulse | 0.147 ± 0.0266 |
| COc1cccc2c(N3CCC(CCP(=O)(O)O)CC3)ncnc12 | Ectonucleotide pyrophosphatase/phosphodiesterase family member 3 (Homo sapiens, UniProt O14638) | cGAMP hydrolysis, inhibitor |  | overnight, added: cGAMP 2 µM | 0.8 |
| c1cc(-c2ccc3ncc(OCC4CCNCC4)nc3c2)cc(N2CCCC2)c1 | Protein AF-9 with DOT1L | DOT1L binding, AlphaLISA |  |  | 5.7 |
